Results collected from several papers.
Lines come from different studies, so protocols differ. Numbers after ± are the reported error.
gag-pol reverse transcriptase: Gag-Pol polyprotein, reverse transcriptase (gag-pol, Human immunodeficiency virus type 1 group M subtype B, UniProt P04585)
gag-pol integrase: Gag-Pol polyprotein, integrase (gag-pol, Human immunodeficiency virus type 1 group M subtype B, UniProt P04585)
gag-pol protease: Gag-Pol polyprotein, protease (gag-pol, Human immunodeficiency virus type 1 group M subtype B, UniProt P04585)

Structure (SMILES)	target	test	conditions	endpoint	result
NS(=O)(=O)c1ccc(NC(=O)c2ccccc2SSc2ccccc2C(=O)Nc2ccc(S(N)(=O)=O)cc2)cc1	Gag-Pol polyprotein, integrase residues 1-213 (gag-pol, Human immunodeficiency virus type 1 group M subtype B, UniProt P04585)	disintegration activity	C-terminally truncated integrase, 10 mM Mn2+	IC50	1140 nM
Nc1ccn(C2CCC(OC(C(=O)O)P(=O)(O)O)C2)c(=O)n1 (racemic)	gag-pol reverse transcriptase	enzyme activity, inhibitor	–	IC50	2200 nM
CC(C)C[C@@H]1NC(=O)[C@H](CCCCN)NC(=O)[C@H](CC(C)C)NC(=O)[C@@](C)(NC(=O)[C@H](Cc2ccccc2)NC(=O)[C@H](Cc2ccc(O)cc2)NC(=O)[C@H](C)NC(=O)[C@@H](N)[C@@H](C)O)CCC=CCC[C@@](C)(C(=O)NCC(=O)N[C@@H](CCCNC(=N)N)C(=O)N[C@@H](Cc2c[nH]c3ccccc23)C(N)=O)NC1=O	gag-pol integrase	integrase 3'-processing, inhibitor	–	IC50	90000 nM
Nc1ncnc2c1ncn2C1CCC(OC(C(=O)O)P(=O)(O)O)C1 (racemic)	gag-pol reverse transcriptase	enzyme activity, inhibitor	–	IC50	3100 nM
C=C(C)C1CCc2c(c(C)cc(O)c(=O)c2O)C1 (centres unmarked)	Gag-Pol polyprotein, RT RNase H domain (gag-pol, Human immunodeficiency virus type 1 group M subtype B, UniProt P04585)	RNase H activity, inhibitor	–	Ki	1000 ± 400 nM
Cc1nc([C@H](NC(=O)c2ccc(-c3ccc(Cl)cc3)[nH]2)[C@@H]2CCCCN2)sc1CO	gag-pol integrase	enzyme activity, inhibitor	–	IC50	> 100000 nM
CC(C)c1ccc(S(=O)(=O)N(CCc2ccccc2)C[C@@H](O)[C@H](Cc2ccccc2)NC(=O)O[C@H]2CO[C@H]3OCC[C@H]32)cc1	gag-pol protease	enzyme activity, inhibitor, FRET	pH 5.0, 27 °C, added: substrate 10 µM	Ki	1080 nM
CC(C)C[C@@H]1NC(=O)[C@H](CCCCN)NC(=O)[C@H](CC(C)C)NC(=O)[C@@](C)(NC(=O)[C@H](Cc2ccccc2)NC(=O)[C@H](Cc2ccc(O)cc2)NC(=O)[C@H](C)NC(=O)[C@@H](N)[C@@H](C)O)CCCCC=CCCCC[C@@](C)(C(=O)NCC(=O)N[C@@H](CCCNC(=N)N)C(=O)N[C@@H](Cc2c[nH]c3ccccc23)C(N)=O)NC1=O	gag-pol integrase	integrase 3'-processing, inhibitor	–	IC50	48000 ± 10000 nM
CC(C)C(O)C(NC(=O)[C@H](Cc1ccc(O)cc1)NC(=O)C(Cc1ccc(O)cc1)[N+](C)(C)C)C(=O)N[C@@H](C)C(=O)O (some centres unmarked)	gag-pol protease	enzyme activity, inhibitor	–	IC50	> 10000 nM
C=CCCCC[C@](C)(NC(=O)[C@H](CC(C)C)NC(=O)[C@H](CCCCN)NC(=O)[C@H](CC(C)C)NC(=O)[C@](C)(CCCCC=C)NC(=O)[C@H](Cc1ccccc1)NC(=O)[C@H](Cc1ccc(O)cc1)NC(=O)[C@H](C)NC(=O)[C@@H](N)[C@@H](C)O)C(=O)NCC(=O)N[C@@H](CCCNC(=N)N)C(=O)N[C@@H](Cc1c[nH]c2ccccc12)C(N)=O	gag-pol integrase	integrase 3'-processing, inhibitor	–	IC50	61000 ± 12000 nM
COc1ccc2c(c1)OCCCC=CCCCCN(CC(O)C(Cc1ccccc1)NC(=O)OC1COC3OCCC13)S2(=O)=O (mixture of isomers)	gag-pol protease	enzyme activity, inhibitor	–	Ki	0.082 nM
